{"data": "Assay results collected from several papers", "note": "Each line is one published result; not all experiments were run side by side. Several values in a cell are separate wells, animals, samples, runs or records.", "chain of UniProt P09936 (whole entry, looked up)": "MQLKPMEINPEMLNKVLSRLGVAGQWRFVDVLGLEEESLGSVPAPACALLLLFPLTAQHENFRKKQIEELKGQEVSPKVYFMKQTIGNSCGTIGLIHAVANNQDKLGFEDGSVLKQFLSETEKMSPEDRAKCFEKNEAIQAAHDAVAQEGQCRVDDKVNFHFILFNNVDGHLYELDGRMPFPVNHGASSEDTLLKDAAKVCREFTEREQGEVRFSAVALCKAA"}
{"SMILES": "C=C1C(=O)O[C@H]2[C@H]1CC/C(C)=C/CC[C@@]1(C)O[C@@H]21", "target or system": "Toxoplasma gondii", "test": "parasite growth, luciferase reporter", "test system": "HFF, tachyzoite", "conditions": "72 h", "quantity": "EC50", "value": "7.62 µM"}
{"SMILES": "CC(=O)c1nn(-c2ccc(Cl)cc2)/c(=N/N=C(\\C)c2ccc(NC(=O)c3ccc(Cl)cc3)cc2)s1", "target or system": "HepG2", "conditions": "1.25 µM", "quantity": "viability", "value": "96.1%"}
{"SMILES": "CCc1ccc(NC(=O)C(C#N)=Cc2ccc(F)c(C#N)c2)cc1", "target or system": "UCHL1 (Homo sapiens, UniProt P09936)", "test": "covalent, intact protein LC-MS", "conditions": "12.5 µM", "quantity": "labelling", "value": "25.6%"}
{"SMILES": "Nc1cccc2c1C(=O)N(C1CCC(=O)NC1=O)C2=O (centres unmarked)", "target or system": "bone marrow CD138+ myeloma cells", "test": "XTT", "conditions": "3 µM, mean of three patients", "quantity": "viability", "value": "5%"}
{"SMILES": "CC(=O)OC[C@H]1O[C@@H]([S-])[C@H](OC(C)=O)[C@@H](OC(C)=O)[C@@H]1OC(C)=O.CCP(CC)CC.[Au+]", "target or system": "Toxoplasma gondii", "test": "bradyzoite growth", "conditions": "pH 8.2, alkaline-induced bradyzoites", "quantity": "EC50", "value": "0.68 µM"}
{"SMILES": "CC(C)c1c(C(=O)Nc2ccccc2)c(-c2ccccc2)c(-c2ccc(F)cc2)n1CC[C@@H](O)C[C@@H](O)CC(=O)O", "target or system": "MCF-10A", "test": "CellTiter-Glo", "conditions": "concentration not given", "how to read": "relative to: normalised, mean of replicates", "quantity": "viability", "value": "91.4%"}
{"SMILES": "Cc1ccc(CNC(=O)Cn2cc(CSc3nc4ccccc4[nH]3)nn2)cc1", "target or system": "MDA-MB-231", "test": "MTT", "conditions": "7.81 ppm", "quantity": "viability", "value": "34.8%"}
{"SMILES": "C/C=C/C/C=C/CCC(=O)[C@H]1O[C@H]1C(N)=O", "target or system": "MCF-10A", "test": "CellTiter-Glo", "conditions": "concentration not given", "how to read": "relative to: normalised, mean of replicates", "quantity": "viability", "value": "84.1%"}
{"SMILES": "CC(C)Cc1ccc(CN2CCCC(NC(=O)c3nn(C)c(=O)c4ccccc34)C2)cc1 (centres unmarked)", "target or system": "Trypanosoma cruzi", "test": "reporter translation, Renilla luciferase mRNA translation", "test system": "cell-free extract", "conditions": "40 µM", "how to read": "relative to: DMSO", "quantity": "inhibition", "value": "5.1%"}
{"SMILES": "O=C(CCCCCCC(=O)Nc1ccccc1)NO", "target or system": "MCF-10A", "test": "CellTiter-Glo", "conditions": "concentration not given", "how to read": "relative to: normalised, mean of replicates", "quantity": "viability", "value": "55.6%"}
{"SMILES": "COc1cc2ncnc(Nc3ccc(Oc4ccccc4)c(C)c3C)c2cc1OC", "target or system": "LoVo (KRAS G13D)", "test": "cell growth, resazurin", "conditions": "1 µM, 72 h, added: 0 nM trametinib", "quantity": "viability", "value": "73.3%"}
{"SMILES": "CN1C(=O)C2(NN=C(c3ccccc3)S2)c2cc(Br)ccc21 (centres unmarked)", "target or system": "SK-N-BE(2) and SK-N-SH", "test": "MTT", "conditions": "10 µM, 24 h", "quantity": "viability", "value": "active"}
{"SMILES": "CC(=O)Nc1cccc(-n2c(=O)n(C3CC3)c(=O)c3c(Nc4ccc(I)cc4F)n(C)c(=O)c(C)c32)c1", "target or system": "LoVo (KRAS G13D)", "test": "resazurin", "conditions": "100.00 nM, 72 h", "how to read": "relative to: DMSO", "quantity": "viability", "value": "50.3%"}
{"SMILES": "Cc1cccc(-c2[nH]c(CNc3ccccc3F)nc2-c2ccc3ncnn3c2)n1", "target or system": "MM1.S pomalidomide-resistant", "test": "XTT", "conditions": "0.75 µM", "quantity": "viability", "value": "100% and 91% and 82%"}
